# Measured values pooled from the literature.
# Compare with care: the assays were run in different laboratories. pEC50: −log10 of the molar value.
# Organism: Schistosoma mansoni
Compound,assay,test system,setting,how to read,measurement,result
Nc1cc(F)c(-c2c(Cl)nc(-c3cccs3)nc2NCC2CCC2)c(F)c1,motility,"adult worms, ex vivo",24 h,,pEC50,6.80
CC1(C(F)F)NC(=O)N(c2ccc(F)c(C(F)(F)F)c2)C1=O (stereo not drawn),,"adult, infected mice","oral, 25 mg/kg single dose",,worm burden reduction,93%
Fc1cc(F)c(-c2c(Cl)nc(-c3cccs3)nc2N2CCOCC2)c(F)c1,worm motility,adult worms ex vivo,24 h,,pEC50,5.71
CN1CCN(c2ccc(-c3ccc4nncc(Nc5ncccn5)c4c3)cc2)CC1,,adult worms,"10 µM, 1 h",direction not given,phenotypic severity score,0
CC1=C(Cn2cc(CO)nn2)C(=O)c2ccccc2C1=O,,adult worms,"10 µM, 48 h",,killing,39.8%
COc1ccc(Nc2cnnc3ccc(-c4ccc(N5CCN(C)CC5)cc4)cc23)cc1Cl,,adult worms,"10 µM, 24 h",direction not given,phenotypic severity score,1
CC1(CNc2nc(-c3cccs3)nc(Cl)c2-c2c(F)cc(C#N)cc2F)COC1,worm motility,adult worms ex vivo,24 h,,pEC50,5.82
CC1=C(Cn2cc(CN3CCNCC3)nn2)C(=O)c2ccccc2C1=O,,adult worms,"25 µM, 48 h",,killing,48.5%
CC1(CNc2nc(-c3cccs3)nc(Cl)c2-c2c(F)cc(F)cc2F)CC1,worm motility,adult worms ex vivo,24 h,,pEC50,6.30
CC1=C(Cn2cc(CN3CCN(C(=O)OC(C)(C)C)CC3)nn2)C(=O)c2ccccc2C1=O,,adult worms,"10 µM, 48 h",,killing,45.4%
CC1(C(F)(F)F)NC(=O)N(c2ccc(F)c(C(F)(F)F)c2)C1=O (stereo not drawn),,"adult, infected mice","oral, 50 mg/kg single dose",,worm burden reduction,81%
CN1CCN(c2ccc(-c3ccc4c(Nc5ncccn5)cnnc4c3)cc2)CC1,,adult worms,"10 µM, 5 h",direction not given,phenotypic severity score,0
Fc1cc(F)c(-c2c(Cl)nc(-c3cccs3)nc2N2CCCCC2)c(F)c1,worm motility,adult worms ex vivo,24 h,,pEC50,5.30
CC1=C(Cn2cc(COC3COC3)nn2)C(=O)c2ccccc2C1=O,,adult worms,"10 µM, 24 h",,killing,46.9%
CN1CCN(S(=O)(=O)c2ccc(-c3ccc4nncc(Nc5ncccn5)c4c3)cc2)CC1,,adult worms,"10 µM, 48 h",direction not given,phenotypic severity score,0

# Repeated from above:
Compound,assay,test system,setting,how to read,measurement,result
CN1CCN(c2ccc(-c3ccc4c(Nc5ncccn5)cnnc4c3)cc2)CC1,,adult worms,"10 µM, 5 h",direction not given,phenotypic severity score,0
